# Measurements from different studies.
# Every numbered part comes from another study and shows a few of its results, in no order. Positions count from the first letter of the parent shown.

# Block 1
# Target: Histone acetyltransferase KAT6A, winged helix 2, GST fusion (KAT6A, Homo sapiens, UniProt Q92794, residues 85-181)
# Technique: protein binding microarray
# Molecule type: double-stranded DNA, one strand shown
# Medium: in vitro
# Concentration: not given
# Notes: 8-mer, flanks averaged, mean of 2 arrays, mostly near background
# Relative to: not given
# Reading: higher = stronger binding
# Target sequence (chain): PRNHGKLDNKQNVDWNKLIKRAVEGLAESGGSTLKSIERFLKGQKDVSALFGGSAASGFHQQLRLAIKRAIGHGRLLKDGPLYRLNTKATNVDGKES
Strand,E-score
GGCGAGTA,-0.0812
TACACCGA,0.0563
CGAGCCGC,0.13
ACCGCCCT,-0.0818
CGTCCAGC,0.1
CAAGTGAG,-0.11
GAAGCTCA,-0.0248
GAGGTACC,0.0782
ACCTAGCC,-0.0272
ACGAGAGA,-0.056
GGATCGGA,-0.0511
TCGGCCCA,0.101
GCACTCAC,-0.0346
ATTTATGA,0.0598
ATGTGAAT,0.0129
AACTCATT,-0.149
GGCGCCGA,0.184
CCTTACAA,-0.0182
AAATTAGC,-0.0102
ACCCTTTC,-0.129
CGACGCCC,0.0878
GCGTAGGA,-0.0659
AGGACTGA,-0.17
TAGCAGGA,0.0578
ACATCTAC,-0.127

# Block 2
# Target: ATF1, bZIP domain (human)
# Technique: DHFR protein complementation
# Medium: yeast
# Notes: single substitutions, most at no-binding floor
# Relative to: wild-type JUN-FOS pair
# Reading: higher = stronger binding
# Starting sequence: JUN, bZIP domain (human); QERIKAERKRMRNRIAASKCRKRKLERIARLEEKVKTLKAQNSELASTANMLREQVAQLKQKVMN; partner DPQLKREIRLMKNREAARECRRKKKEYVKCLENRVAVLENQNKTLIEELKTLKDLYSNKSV
Substitution,binding fitness [natural log]
A46N,-1.39
T48P,-1.53
K39L,-1.53
A29W,-1.51
L31S,-1.55
I28N,-1.39
T37R,-1.46
A57E,-1.45
R53W,-1.54
N42W,-1.53
K34H,-1.45
N42S,-1.49
A46G,-1.52
S47F,-1.51
A29D,-1.22

# Block 3
# Target: CCNA1, cyclin fold, Cln2 fusion (human)
# Technique: yeast growth competition, sequencing
# Medium: yeast
# Notes: weak parent motif
# Relative to: not given
# Reading: higher = stronger binding
# Starting sequence: ORC1 docking peptide (human); PRARKRLELGNLG; partner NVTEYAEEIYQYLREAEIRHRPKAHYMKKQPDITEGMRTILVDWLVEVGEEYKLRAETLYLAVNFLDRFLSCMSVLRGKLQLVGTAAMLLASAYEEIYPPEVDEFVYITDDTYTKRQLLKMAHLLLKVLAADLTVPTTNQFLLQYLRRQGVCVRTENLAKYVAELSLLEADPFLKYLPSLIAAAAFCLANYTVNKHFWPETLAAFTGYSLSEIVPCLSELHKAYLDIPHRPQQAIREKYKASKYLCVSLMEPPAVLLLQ
Substitution,normalised enrichment score
PRARKRLELGNRG [L12R],0.406
PRARKRLELGNLS [G13S],0.428
PRARKRLELGILG [N11I],0.323
PRADKRLELGNLG [R4D],0.158
PRARKRLELENLG [G10E],0.381
RRARKRLELGNLG [P1R],0.422
PRARWRLELGNLG [K5W],-0.155
PHARKRLELGNLG [R2H],0.595
PRARKRLELGNFG [L12F],0.363
PRARKRLEFGNLG [L9F],1.28
PRARKRPELGNLG [L7P],-0.0643
PRARRRLELGNLG [K5R],0.874
PRARKRLELGNCG [L12C],0.334
PRARKRLEHGNLG [L9H],0.48
PRARKPLELGNLG [R6P],0.183
PRNRKRLELGNLG [A3N],0.579
PRQRKRLELGNLG [A3Q],0.706
HRARKRLELGNLG [P1H],0.241
PRARKRLELKNLG [G10K],0.315
PRWRKRLELGNLG [A3W],0.387
SRARKRLELGNLG [P1S],0.187
PRARKRLPLGNLG [E8P],0.0939
PRARKRLELGVLG [N11V],0.644
PRARKRNELGNLG [L7N],-0.0812
PRARKRLELGKLG [N11K],0.143

# Block 4
# Target: ABI1, truncated, D143A, DHFR fusion (Arabidopsis thaliana)
# Technique: DHFR PCA, deep sequencing
# Medium: yeast
# Notes: methotrexate growth selection, single substitutions
# Added: (+)-ABA 4.8 µM
# Relative to: wild-type fitted maximum
# Reading: higher = stronger binding
# Starting sequence: PYL1, truncated, DHFR fusion (Arabidopsis thaliana); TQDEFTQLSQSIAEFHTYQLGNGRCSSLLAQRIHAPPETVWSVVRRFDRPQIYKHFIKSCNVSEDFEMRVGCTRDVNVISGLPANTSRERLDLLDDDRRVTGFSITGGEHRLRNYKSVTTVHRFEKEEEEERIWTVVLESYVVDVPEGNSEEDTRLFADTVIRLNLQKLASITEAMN
Substitution,relative binding score
L94V,4.81%
T106M,72.8%
D75Y,72.8%
G71K,-3.25%
G23E,35.6%
S26H,64.5%
Q2E,78.1%
T6W,64%
Q51P,23.4%
A170H,-11.6%
P36Y,23.5%
T1L,73.6%
E4G,54.1%
R111Y,-0.959%

# Block 5
# Target: RNA binding protein fox-1 homolog 2, RRM domain, GST-SBP tag (RBFOX2, Homo sapiens, UniProt O43251-10, residues 100-194)
# Technique: RNA Bind-n-Seq
# Molecule type: RNA
# Medium: in vitro
# Concentration: 365 nM
# Notes: natural RNA segment, single round, ends assumed
# Relative to: no-protein control
# Reading: higher = stronger binding
# Shared flanks, not repeated: GGGAGUUCUACAGUCCGACGAUC … UGGAAUUCUCGGGUGCCAA
# Target sequence (chain): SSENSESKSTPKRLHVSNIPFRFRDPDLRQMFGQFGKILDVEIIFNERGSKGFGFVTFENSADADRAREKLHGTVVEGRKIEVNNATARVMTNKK
Strand,RBNS enrichment (R)
AUUUGUCUAUAUUUCCUACGGUGCAUCUAUAAAGAGUGCACACACCUAUGGGAAACCUAGGUUUCAUUAUAGCUGAAGUAGACACAUGAAUUAAAAACAUUACAAAUGAA,0.344
AUUUUAUAAGUUUUGUUACAUGAAAGGUUGAAAUAUUGAGUGGUUGAAAGUGAACUGCUGUUUGCCUGAUUGGUAAACCAACACACUACAAUUGAUAUCAAAAGGUUUCU,0.419
UAUUUUAAUGUAGAAAAUGUGACAUCUCGUUAUAAAUGAAAAUAAAUGUUAAAUUAAAUGGAAGUUACCUGAAAUGACUCUGUGUUUUCUCUCGAGAGGAACGGCAGCAA,0.409
GUGCCUUUGAGUUUCCUCAGGCUGCUGGAGGAAAACUGAGACUCAGACAGGAAAGGGAAGGCCCCACAGACAAGGUAGCCCUGGCCAGAGGCUUGUUUUGUCUUUUGGUU,0.898
GGACAGCAAUGUGAGCAGGCAGUUGAACAGGAAGAGGACAUUUUCUUUGUGGCUUUGGACCUGGACAGGAAGGUCCCACGGACCUUAUGUGAUGCGGGAGGCUCACAAAC,0.629
GAGAAGCAGAUGAAGCUGUACUACCCAGCCCUCUUCUUGUUUGUAUUUGUUUAGGGUUGUGAGGUUGUGUAAAAUAGUACUAGCUUCUUACUUGAGAACUACAGUUUCUG,1.84
UCAUGAUUUCCUGAAAAAAUAUUUUUUUAAAAGAAAACUAUUUUUUUUAAAUACUAGAGAGACAGUGGACUAGGAAAGCGAGAACUUGCCGCCUUGUCUAGUGACUGUAU,0.666
CUAGAGAGAGCCGCGUUGCCAGUUCCUCUCCCACUCGCUCGUCCUUAUCCACCACGCUAUUAUAGUUUCCGUUGUCCUCCACCAGCAUUUCCCUUACUCUGAAGUUCCGG,0.629

# Mixed results
Substance,target,test,test system,setting,scale,measurement,value
"PhoQ, residues 284 288 289 292 302 303 SASVAL","PhoP, residues 12 14 15 18 19 AGCRL (Escherichia coli, UniProt P23836)","Sort-seq, measured: YFP reporter",E. coli,"PhoQ-PhoP variant library, added: 10 µM Mg2+","relative to: high Mg2+ state, higher = stronger signaling",fold induction,1.08

# A few entries again (block 3):
Substitution,normalised enrichment score
PRQRKRLELGNLG [A3Q],0.706
PRARKRLEFGNLG [L9F],1.28
PRARKRLELGNRG [L12R],0.406
PHARKRLELGNLG [R2H],0.595
PRARKRLELGNCG [L12C],0.334
PRARKRLELGNFG [L12F],0.363
PRARKPLELGNLG [R6P],0.183
SRARKRLELGNLG [P1S],0.187
PRARKRLPLGNLG [E8P],0.0939
HRARKRLELGNLG [P1H],0.241
PRARKRLELKNLG [G10K],0.315
